Published values of several laboratories.
Parts stem from different laboratories: compare values within a part only.

Study 1 — action: inhibitor; concentration: 20 µM
Target: Replicase polyprotein 1ab, nsp13 helicase (rep, Severe acute respiratory syndrome coronavirus 2, UniProt P0DTD1)
Compound | inhibition
COC(=O)Nc1nc2cc(C(=O)c3ccc(F)cc3)ccc2[nH]1 | 6.7%
NC(=O)c1ccccc1O | -0.56%
CC(=O)Nc1ccc(CC(=O)O)cc1 | 4.68%
COc1cc(-n2c(=S)[nH]c3ccccc3c2=O)c(Cl)cc1Cl | 7.08%
Cc1ccccc1-n1c(Cn2ncc3c(N)ncnc32)nc2cccc(C)c2c1=O | 1.21%
COc1cc(Nc2c(C#N)cnc3cc(OCCCN4CCN(C)CC4)c(OC)cc23)c(Cl)cc1Cl | 17.2%
CCCCCNCC(N)=O | 7.2%
CCC(=O)O[C@@H]1CC(=O)O[C@H](C)C/C=C/C=C/[C@H](OC(C)=O)[C@H](C)C[C@H](CC=O)[C@H](O[C@@H]2O[C@H](C)[C@@H](O[C@H]3C[C@@](C)(OC(C)=O)[C@@H](OC(=O)CC)[C@H](C)O3)[C@H](N(C)C)[C@H]2O)[C@H]1OC | 1.5%
CN1C(=O)N(c2cc(Cl)cc(Cl)c2)C(=O)[C@]12CN(Cc1cc(C(=O)O)cs1)C[C@H]2c1ccc(C#N)cc1 | 1.07%
CC(C)C[C@H](NC(=O)[C@H](CCc1ccccc1)NC(=O)CN1CCOCC1)C(=O)N[C@@H](Cc1ccccc1)C(=O)N[C@@H](CC(C)C)C(=O)[C@@]1(C)CO1 | 5.65%
CC(=O)Oc1c(C)cccc1C(=O)O | -0.06%
CC(=O)NC[C@H]1CN(c2ccc(N3CCN(C(=O)CO)CC3)c(F)c2)C(=O)O1 | 2.45%
CN(C/C=C/C#CC(C)(C)C)Cc1cccc2ccccc12 | 8.28%
CCOc1ccccc1O[C@H](c1ccccc1)[C@H]1CNCCO1 | 2.98%
C1Cc2[nH]nc(-c3nn[nH]n3)c2C1 | 6.94%
O=C(O)CCc1cc(C(=O)c2ccc(OC3CCCC3)cc2O)ccc1OCc1ccc2c(=O)[nH]oc2c1 | -2.57%
COc1cc([C@@H]2c3cc4c(cc3[C@H](O)[C@H]3COC(=O)[C@H]23)OCO4)cc(OC)c1OC | 2.22%
CC1(C)OC(=O)C(OCC2CC2)=C1c1ccc(S(C)(=O)=O)cc1 | 5.58%
CCc1c(C(=O)C(N)=O)c2c(OCC(=O)O)cccc2n1Cc1ccccc1 | 4.02%
O=C(Cc1ccc(Cl)c(Cl)c1)N1CCCCC1CN1CCCC1 (centres unmarked) | -0.03%
CC(C)c1ccc(C(=O)N=C(N)N)cc1S(C)(=O)=O | 6.15%
CO[C@]12C[C@@H](COC(=O)c3cncc(Br)c3)CN(C)[C@@H]1Cc1cn(C)c3cccc2c13 | 3.81%
N#CC(c1ccnc(OCc2ccc(CN3CCOCC3)cc2)n1)c1nc2ccccc2s1 (centres unmarked) | 12%
CCOC(=O)[C@]12CC1/C(=N\O)c1ccccc1O2 (mixture of isomers) | 8.37%
C=CC(=O)Nc1cccc(Oc2nc(Nc3ccc(N4CCN(C)CC4)cc3)ncc2Cl)c1 | 27.3%

Study 2 — method: RNA Bind-n-Seq; molecule type: RNA; matrix: in vitro; concentration: not given; reference: input RNA pool; reading: higher = stronger binding
Target: RING finger protein unkempt homolog, zinc fingers 1-6, GST-SBP tag (UNK, Homo sapiens, UniProt Q9C0B0, residues 30-357)
UniProt Q9C0B0, sequence (30-357, looked up): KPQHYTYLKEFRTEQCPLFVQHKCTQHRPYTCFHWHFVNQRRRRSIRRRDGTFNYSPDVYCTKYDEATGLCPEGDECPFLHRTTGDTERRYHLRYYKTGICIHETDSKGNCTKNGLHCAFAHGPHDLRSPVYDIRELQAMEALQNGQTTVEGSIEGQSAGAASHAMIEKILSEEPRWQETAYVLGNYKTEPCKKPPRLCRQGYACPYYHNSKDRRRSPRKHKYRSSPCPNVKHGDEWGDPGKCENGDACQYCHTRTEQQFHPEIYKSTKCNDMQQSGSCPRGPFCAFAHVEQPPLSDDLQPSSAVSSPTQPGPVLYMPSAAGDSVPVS
Setting: RNA with constant flanks, human and mouse sites, ends assumed
Shared flanks, not repeated: GGGAGUUCUACAGUCCGACGAUC … CAACAGAGGAUUGAGCAUCA
Strand | bound/input enrichment [ratio]
CCUGAGCUAAAAUACCCAAAAGGAGCUGGGAGAGUUGCGUUCUCUAAUCAACAGAGUUACAUAGCUGCUAUCAGUGCCCGCUUUGUUCAGCUGCAGCAUGGAGAGAUAGAUAAACGGGUG | 0.295
GGUUAUUUACUACUCUUCAAAGUCUUCUGUUACCCAAACAUACAGUUAAUAAUUAUCAAUUUAUGGAGUGCAUUUGGCUAAAAGUCUGUUUUGGGCUUACUAAAGGGAAUGCCUUCAUAG | 0.587
UUGAAGCAAGUUCUCGGCCAGAUGGUGAUUGAUGAGGAGCUUCUGGGAGAUGGACACAGCUAUAGUCCUAGAGCUAUUCAUUCAUGGCUGACCAGGGCCAUGUACAGCCGGCGCUCGAAG | 0.116
AAGGAGUAAGCAAAUUGGAGGUGGAGGGUGGGCCUCACCUUAUACUACAAUCAAACCUUGUAGUUUGGGGUGUUUUGUUUGUUUGUUUUGUAUUGUAUUGUUUUUAAACAAGUCUAGCCA | 0.452
AUUUAGAGAAUGAUUUCCACCUUUAUGUUUUAAUAUCCUAGGCAUCUGCUGUAAUAAUAUUUUAGAAAAUGUUUGGAAUUUAAGAAAUAACUUGUGUUACUAAUUUGUAUAACCCAUAUC | 2.69
CAGGUUAGAGUUACUUGUUAUUGGUAAAUAGCCACUAUGGAGGCUAAGGACCAGAAGAAACACAGAAAGAAAAACAGUGGACCCAAAGCUGCAAAGAAAAAGAAGCGGCUUCUGCAGGAU | 0.18
UGUGACUGUGAGGAGGGUGGGAGUGUGGAUGGGGAGGAAGGUUCUAGGCUCUCUUAUUUUUCUCAUUUCCCAAUGCCUCUCUGUGGGAGAGCUCCAUGCCAGUUUUCACCACGCUCAGGC | 0.162
CAGGAACAACCGGCUCGGCGGCCCGGGCUCGCUGCCCAAGGGCCUGGCCCAGUCGCCGCUCUGCCGCAGCCUCCAAGUGCUCAACCUCAGCGGCAACUGCUUCCAGGAGCUGCCCGCCUC | 0.236

Study 3 — read-out: enzyme activity; action: inhibitor; setting: without DTT
Target: Replicase polyprotein 1ab, main protease (rep, Severe acute respiratory syndrome coronavirus 2, UniProt P0DTD1)
Structure (SMILES) | IC50
S=C(S)N1CCCC1 | 200 nM
COC(=O)CC[C@H](NC(=O)[C@H](CC(=O)OC)NC(=O)OCc1ccccc1)C(=O)N[C@H](C(=O)N[C@@H](CC(=O)OC)C(=O)CF)C(C)C | 10 nM
O=C(O)c1ccc(SSc2ccc(C(=O)O)cn2)nc1 | 240 nM
Cc1c(OCC(F)(F)F)ccnc1C[S+]([O-])c1nc2ccccc2[nH]1 (centres unmarked) | 7300 nM
COc1ccnc(C[S+]([O-])c2nc3ccc(OC(F)F)cc3[nH]2)c1OC (centres unmarked) | > 20000 nM

Study 4 — method: protein-binding microarray; molecule type: double-stranded DNA, one strand shown; matrix: in vitro; concentration: 2200 nM top; setting: 60-bp whole probe; together with: salmon DNA 0.4 mg/ml; reference: random background probes; reading: higher = stronger binding; shared flanks, not repeated: GCCTAGCAC … GTCTTGATTCGCTTGACGCTGCTG
Target: Interferon regulatory factor 7, full length, phosphomimetic (IRF7, Homo sapiens, UniProt Q92985, residues 1-503, S471D/S472D/S475D/S476D/S477D/S483D/S484D/S487D)
UniProt Q92985, sequence (whole entry, unmodified, looked up): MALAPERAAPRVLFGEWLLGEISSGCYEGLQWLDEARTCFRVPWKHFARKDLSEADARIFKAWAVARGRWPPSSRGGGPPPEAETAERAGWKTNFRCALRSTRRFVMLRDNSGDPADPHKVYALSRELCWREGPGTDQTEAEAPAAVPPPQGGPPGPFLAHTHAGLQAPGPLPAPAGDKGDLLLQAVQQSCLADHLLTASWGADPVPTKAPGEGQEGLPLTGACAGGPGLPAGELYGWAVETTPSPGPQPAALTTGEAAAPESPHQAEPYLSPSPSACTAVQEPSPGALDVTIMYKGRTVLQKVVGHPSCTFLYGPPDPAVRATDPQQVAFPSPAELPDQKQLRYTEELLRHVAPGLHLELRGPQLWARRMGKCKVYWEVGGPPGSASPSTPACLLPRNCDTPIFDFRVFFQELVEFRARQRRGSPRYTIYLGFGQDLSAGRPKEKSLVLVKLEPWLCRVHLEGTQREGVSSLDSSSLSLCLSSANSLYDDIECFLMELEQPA
Strand | fitted relative affinity [z-score]
TTACATATCGGGACTGGATTAGTGCTA | 0.521
AACGGACTGGGTTTCGGGACGTGCTAG | 1.18
GACGGTTTCCTTATCCTAACGTGCTAG | 3.07
TTAGATTTAAGACTGGATTAGTGCTAG | -0.823
TCAAGTTTTCCTATGTCACTGTGCTAG | 1.81
TCCTCTTTTTTGTTCCACGCGTGCTAG | 2.55
TAGGTTTTCTGGTTCCCATTGTGCTAG | 4.44
GACGGATTCCTACTGCTGACGTGCTAG | 0.776

Study 5 — cell line: HEK-293T/ACE2; concentration: 10 µM; time: 16 h; reference: vehicle
SMILES | viability [%]
C[N+]12CCC(CC1)C(OC(=O)C(O)(c1ccccc1)c1ccccc1)C2 (centres unmarked) | 100
c1ccc2[nH]c(-c3cscn3)nc2c1 | 100
CC(C)c1nc(CN(C)C(=O)N[C@H](C(=O)N[C@@H](Cc2ccccc2)C[C@H](O)[C@H](Cc2ccccc2)NC(=O)OCc2cncs2)C(C)C)cs1 | 103
C/C(=C\C(=O)OCCCCCCCCC(=O)O)C[C@@H]1OC[C@H](C[C@@H]2O[C@H]2[C@@H](C)[C@H](C)O)[C@@H](O)[C@H]1O | 97.8
CC[C@H]1OC(=O)[C@H](C)[C@@H](O[C@H]2C[C@@](C)(OC)[C@@H](O)[C@H](C)O2)[C@H](C)[C@@H](O[C@@H]2O[C@H](C)C[C@H](N(C)C)[C@H]2O)[C@](C)(O)C[C@@H](C)CN(C)[C@H](C)[C@@H](O)[C@]1(C)O | 100

Study 6 — method: protein-binding microarray; molecule type: double-stranded DNA, one strand shown; matrix: in vitro; concentration: not given; reading: higher = stronger binding
Target: Protein max, full length (MAX, Homo sapiens, UniProt P61244-2, residues 1-151)
Setting: k-mer, scored over probes, only values ≥0.25
Strand | E-score
CCTCGTGA | 0.462
AGGGGCAT | 0.257
ACGACATG | 0.272
AGTGCATG | 0.308
GTGCTTCA | 0.279

For quick reference, copied from above (study 1):
Compound | inhibition
O=C(Cc1ccc(Cl)c(Cl)c1)N1CCCCC1CN1CCCC1 (centres unmarked) | -0.03%
CC(=O)Nc1ccc(CC(=O)O)cc1 | 4.68%
CO[C@]12C[C@@H](COC(=O)c3cncc(Br)c3)CN(C)[C@@H]1Cc1cn(C)c3cccc2c13 | 3.81%
CN(C/C=C/C#CC(C)(C)C)Cc1cccc2ccccc12 | 8.28%
CN1C(=O)N(c2cc(Cl)cc(Cl)c2)C(=O)[C@]12CN(Cc1cc(C(=O)O)cs1)C[C@H]2c1ccc(C#N)cc1 | 1.07%
